Published values collected from several papers.
A part holds a random share of what one study measured.
UniProt P36507, sequence (whole entry, looked up): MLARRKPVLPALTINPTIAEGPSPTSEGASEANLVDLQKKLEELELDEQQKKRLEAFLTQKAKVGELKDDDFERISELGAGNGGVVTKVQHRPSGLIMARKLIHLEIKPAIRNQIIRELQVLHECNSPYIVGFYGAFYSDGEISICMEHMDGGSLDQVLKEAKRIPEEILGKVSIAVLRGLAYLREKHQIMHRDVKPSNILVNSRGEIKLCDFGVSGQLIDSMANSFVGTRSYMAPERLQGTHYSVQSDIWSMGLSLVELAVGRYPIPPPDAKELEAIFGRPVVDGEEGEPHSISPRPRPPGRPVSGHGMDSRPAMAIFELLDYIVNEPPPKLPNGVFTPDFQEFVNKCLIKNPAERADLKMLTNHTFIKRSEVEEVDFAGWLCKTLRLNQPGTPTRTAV
UniProt P0C264, sequence (whole entry, looked up): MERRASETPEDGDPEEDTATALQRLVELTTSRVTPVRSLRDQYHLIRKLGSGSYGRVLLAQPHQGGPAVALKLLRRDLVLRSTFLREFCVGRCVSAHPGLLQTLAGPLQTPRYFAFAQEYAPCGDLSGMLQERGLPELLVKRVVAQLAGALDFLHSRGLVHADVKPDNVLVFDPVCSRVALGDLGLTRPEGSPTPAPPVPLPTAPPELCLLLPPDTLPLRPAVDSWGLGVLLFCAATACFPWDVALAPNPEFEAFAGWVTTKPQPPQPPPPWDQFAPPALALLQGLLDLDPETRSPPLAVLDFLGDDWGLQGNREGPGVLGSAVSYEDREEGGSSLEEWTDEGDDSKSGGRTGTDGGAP
UniProt Q8WTQ7, sequence (whole entry, looked up): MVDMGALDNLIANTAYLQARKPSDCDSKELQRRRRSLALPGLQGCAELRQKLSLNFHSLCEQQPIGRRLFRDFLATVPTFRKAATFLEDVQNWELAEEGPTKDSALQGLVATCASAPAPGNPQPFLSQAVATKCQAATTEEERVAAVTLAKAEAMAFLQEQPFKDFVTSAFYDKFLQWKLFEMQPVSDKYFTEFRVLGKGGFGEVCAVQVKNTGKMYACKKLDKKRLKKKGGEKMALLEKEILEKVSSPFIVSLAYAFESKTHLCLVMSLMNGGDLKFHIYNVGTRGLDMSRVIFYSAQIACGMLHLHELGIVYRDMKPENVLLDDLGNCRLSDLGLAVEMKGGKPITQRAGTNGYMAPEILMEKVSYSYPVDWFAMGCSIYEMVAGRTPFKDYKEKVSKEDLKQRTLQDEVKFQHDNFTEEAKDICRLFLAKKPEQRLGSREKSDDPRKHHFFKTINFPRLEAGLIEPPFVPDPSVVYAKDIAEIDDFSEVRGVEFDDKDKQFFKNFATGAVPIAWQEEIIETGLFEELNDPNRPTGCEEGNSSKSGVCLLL
UniProt P42336, sequence (whole entry, unmodified, looked up): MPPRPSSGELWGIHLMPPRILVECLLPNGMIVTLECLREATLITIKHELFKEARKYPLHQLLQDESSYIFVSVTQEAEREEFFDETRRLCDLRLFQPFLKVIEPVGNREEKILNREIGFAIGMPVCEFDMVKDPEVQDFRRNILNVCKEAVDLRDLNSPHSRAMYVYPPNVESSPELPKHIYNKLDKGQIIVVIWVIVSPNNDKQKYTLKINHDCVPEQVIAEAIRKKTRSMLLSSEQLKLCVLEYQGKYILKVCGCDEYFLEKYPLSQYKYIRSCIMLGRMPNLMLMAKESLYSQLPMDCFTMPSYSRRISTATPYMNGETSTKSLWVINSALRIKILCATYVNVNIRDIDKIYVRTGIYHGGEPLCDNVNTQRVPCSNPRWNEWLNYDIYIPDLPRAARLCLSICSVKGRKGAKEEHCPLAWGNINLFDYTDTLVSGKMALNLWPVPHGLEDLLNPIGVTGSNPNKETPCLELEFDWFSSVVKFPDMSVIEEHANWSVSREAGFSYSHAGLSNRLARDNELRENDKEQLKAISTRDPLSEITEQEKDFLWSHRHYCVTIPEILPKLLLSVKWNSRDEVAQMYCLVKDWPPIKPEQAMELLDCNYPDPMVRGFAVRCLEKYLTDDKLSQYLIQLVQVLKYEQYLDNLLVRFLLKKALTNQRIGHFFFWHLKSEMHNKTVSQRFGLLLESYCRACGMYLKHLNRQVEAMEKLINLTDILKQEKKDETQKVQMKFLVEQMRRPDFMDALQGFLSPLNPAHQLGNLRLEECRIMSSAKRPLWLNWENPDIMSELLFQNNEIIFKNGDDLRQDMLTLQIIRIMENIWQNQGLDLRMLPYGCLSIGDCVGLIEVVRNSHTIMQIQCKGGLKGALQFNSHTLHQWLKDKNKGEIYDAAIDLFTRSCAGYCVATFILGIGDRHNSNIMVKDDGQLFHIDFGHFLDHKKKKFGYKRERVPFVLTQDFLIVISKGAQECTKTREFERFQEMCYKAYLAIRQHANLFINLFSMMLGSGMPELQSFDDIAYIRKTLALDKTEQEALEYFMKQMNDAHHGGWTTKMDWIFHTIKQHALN
UniProt Q9H3Y6, sequence (whole entry, looked up): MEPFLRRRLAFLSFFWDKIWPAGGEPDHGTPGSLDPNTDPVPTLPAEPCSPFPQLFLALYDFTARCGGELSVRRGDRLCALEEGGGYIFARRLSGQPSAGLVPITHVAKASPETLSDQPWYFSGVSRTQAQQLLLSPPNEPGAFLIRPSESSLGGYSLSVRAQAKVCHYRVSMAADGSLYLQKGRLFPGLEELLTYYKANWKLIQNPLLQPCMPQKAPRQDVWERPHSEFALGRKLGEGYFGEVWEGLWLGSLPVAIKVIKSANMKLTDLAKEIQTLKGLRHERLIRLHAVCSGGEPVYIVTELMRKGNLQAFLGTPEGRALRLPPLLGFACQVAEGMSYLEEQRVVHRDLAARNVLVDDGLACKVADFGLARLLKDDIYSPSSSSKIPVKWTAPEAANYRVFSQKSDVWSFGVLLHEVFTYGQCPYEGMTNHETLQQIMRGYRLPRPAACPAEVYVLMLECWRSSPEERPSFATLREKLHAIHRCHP
UniProt P10398, sequence (whole entry, looked up): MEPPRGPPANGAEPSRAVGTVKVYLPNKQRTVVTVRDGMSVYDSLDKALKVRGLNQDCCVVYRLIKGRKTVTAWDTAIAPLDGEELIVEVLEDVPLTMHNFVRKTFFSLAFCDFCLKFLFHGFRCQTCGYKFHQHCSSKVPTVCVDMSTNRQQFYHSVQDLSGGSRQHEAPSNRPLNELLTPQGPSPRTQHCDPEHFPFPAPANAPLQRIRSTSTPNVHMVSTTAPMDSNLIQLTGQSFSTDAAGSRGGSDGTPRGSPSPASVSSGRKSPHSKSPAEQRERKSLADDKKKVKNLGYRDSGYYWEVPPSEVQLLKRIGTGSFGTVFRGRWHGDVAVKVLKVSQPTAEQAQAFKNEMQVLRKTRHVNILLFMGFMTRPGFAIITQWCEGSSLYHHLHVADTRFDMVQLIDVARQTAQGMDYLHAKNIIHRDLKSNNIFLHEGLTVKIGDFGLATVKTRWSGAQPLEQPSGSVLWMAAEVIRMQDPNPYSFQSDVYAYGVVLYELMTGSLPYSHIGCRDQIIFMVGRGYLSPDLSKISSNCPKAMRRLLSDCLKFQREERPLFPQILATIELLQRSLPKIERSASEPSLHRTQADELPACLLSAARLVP
UniProt O76039, sequence (whole entry, looked up): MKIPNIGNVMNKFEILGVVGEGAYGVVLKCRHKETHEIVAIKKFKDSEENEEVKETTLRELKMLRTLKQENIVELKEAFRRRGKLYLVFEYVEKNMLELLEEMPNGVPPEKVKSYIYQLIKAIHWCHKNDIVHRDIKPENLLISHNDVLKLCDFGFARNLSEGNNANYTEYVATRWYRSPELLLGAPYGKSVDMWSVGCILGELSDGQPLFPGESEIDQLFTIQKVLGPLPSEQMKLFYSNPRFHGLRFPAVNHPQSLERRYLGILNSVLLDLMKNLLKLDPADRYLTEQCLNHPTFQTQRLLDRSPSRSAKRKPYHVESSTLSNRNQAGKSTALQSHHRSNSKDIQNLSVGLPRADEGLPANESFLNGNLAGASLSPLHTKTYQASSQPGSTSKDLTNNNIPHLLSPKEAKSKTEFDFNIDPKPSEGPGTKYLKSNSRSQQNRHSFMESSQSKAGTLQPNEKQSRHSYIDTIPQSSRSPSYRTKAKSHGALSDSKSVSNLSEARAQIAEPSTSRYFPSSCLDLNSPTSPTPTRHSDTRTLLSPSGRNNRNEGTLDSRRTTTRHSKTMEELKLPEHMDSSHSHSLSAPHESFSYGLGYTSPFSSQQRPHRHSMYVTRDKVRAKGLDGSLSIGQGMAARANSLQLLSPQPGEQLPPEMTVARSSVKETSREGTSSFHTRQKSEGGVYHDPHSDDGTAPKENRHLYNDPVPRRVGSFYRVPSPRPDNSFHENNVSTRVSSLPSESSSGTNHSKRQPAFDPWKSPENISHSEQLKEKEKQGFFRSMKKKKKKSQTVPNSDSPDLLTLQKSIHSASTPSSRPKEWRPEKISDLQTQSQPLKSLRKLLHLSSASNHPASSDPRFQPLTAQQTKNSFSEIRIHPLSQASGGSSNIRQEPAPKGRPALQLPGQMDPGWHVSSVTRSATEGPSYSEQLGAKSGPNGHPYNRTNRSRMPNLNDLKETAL
UniProt P49137, sequence (whole entry, looked up): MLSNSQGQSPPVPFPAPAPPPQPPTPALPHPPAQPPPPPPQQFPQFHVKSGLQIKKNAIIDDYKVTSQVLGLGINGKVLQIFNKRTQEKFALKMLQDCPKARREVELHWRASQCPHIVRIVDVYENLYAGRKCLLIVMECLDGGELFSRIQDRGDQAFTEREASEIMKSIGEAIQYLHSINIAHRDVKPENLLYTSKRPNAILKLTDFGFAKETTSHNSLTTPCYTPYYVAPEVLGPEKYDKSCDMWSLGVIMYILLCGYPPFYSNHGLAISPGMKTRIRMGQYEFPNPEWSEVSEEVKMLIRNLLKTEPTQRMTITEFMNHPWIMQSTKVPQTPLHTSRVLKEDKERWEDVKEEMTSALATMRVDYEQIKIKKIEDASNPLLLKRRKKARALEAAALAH

Sample 1 — cell line: HH; tested at: 2 µM; time: 48 h; reference: untreated
With `C=CC(=O)Nc1cccc(Oc2nc(Nc3ccc(N4CCN(C)CC4)cc3)nc3ccsc23)c1` the viability was 64.2%.
`CN1CCC(COc2cnc(-c3cccc(Cn4nc(-c5cccc(C#N)c5)ccc4=O)c3)nc2)CC1` has a viability of 73.5%.
`CNC(=O)Nc1ccc(-c2nc(N3CC4CCC(C3)O4)c3cnn(C4CCC5(CC4)OCCO5)c3n2)cc1` has a viability of 28.3%.
`Oc1ccc(-c2nc(-c3ccc(F)cc3)c(-c3ccncc3)[nH]2)cc1` has a viability of 102%.
`COc1ccc(COc2cc3oc(=O)c4cc(C(C)O)ccc4c3cc2OC)cc1` (centres unmarked) has a viability of 76.3%.
The viability of `NC(=O)c1cccc(-c2cc(Nc3ccc(OC(F)(F)F)cc3)ncn2)c1` is reported as 98.7%.
`C[C@@H](N)[C@H]1CC[C@H](C(=O)Nc2ccncc2)CC1` gave a viability of 99.1%.

Sample 2 — observed: cell-free assay; technique: competition with immobilised ligand; tested at: 1 µM
Compound: CO[C@H]1CC[C@H](CNc2ccc(S(=O)(=O)NC(=O)c3ccc(N4CCN(CC5=C(c6ccc(Cl)cc6)CC(C)(C)CC5)CC4)cc3Oc3cnc4[nH]ccc4c3)cc2[N+](=O)[O-])CC1
It gave 89% for remaining binding (Tyrosine-protein kinase Srms (SRMS, Homo sapiens, UniProt Q9H3Y6)).
For Ephrin type-B receptor 1 (EPHB1, Homo sapiens, UniProt P54762): remaining binding read 84%.
Uncharacterized serine/threonine-protein kinase SBK3 (SBK3, Homo sapiens, UniProt P0C264) — remaining binding: 83%.
For Protein kinase C delta type (PRKCD, Homo sapiens, UniProt Q05655): remaining binding read 70%.
For Serine/threonine-protein kinase NLK (NLK, Homo sapiens, UniProt Q9UBE8): remaining binding read 100%.
For Dual specificity tyrosine-phosphorylation-regulated kinase 1A (DYRK1A, Homo sapiens, UniProt Q13627): remaining binding read 65%.
It gave 100% for remaining binding (Dual specificity mitogen-activated protein kinase kinase 2 (MAP2K2, Homo sapiens, UniProt P36507)).
For Homeodomain-interacting protein kinase 2 (HIPK2, Homo sapiens, UniProt Q9H2X6): remaining binding read 100%.
Cyclin-dependent kinase-like 5 (CDKL5, Homo sapiens, UniProt O76039) — remaining binding: 74%.
It gave 100% for remaining binding (Dual specificity mitogen-activated protein kinase kinase 7 (MAP2K7, Homo sapiens, UniProt O14733)).
Mitogen-activated protein kinase kinase kinase 11 (MAP3K11, Homo sapiens, UniProt Q16584) — remaining binding: 74%.
It gave 92% for remaining binding (cGMP-dependent protein kinase 1 (PRKG1, Homo sapiens, UniProt Q13976)).
The remaining binding was 70% (Phosphatidylinositol 4,5-bisphosphate 3-kinase catalytic subunit alpha isoform (PIK3CA, Homo sapiens, UniProt P42336, H1047Y)).
It gave 71% for remaining binding (Ribosomal protein S6 kinase alpha-2, C-terminal kinase domain (RPS6KA2, Homo sapiens, UniProt Q15349)).
For Serine/threonine-protein kinase Nek10 (NEK10, Homo sapiens, UniProt Q6ZWH5): remaining binding read 100%.

Sample 3 — cell line: A-375; tested at: 100 µM; time: 18 h
`CCCC(=O)Nc1ccc(OCC(O)CNC(C)C)c(C(C)=O)c1` (centres unmarked) has a viability of 104%.
`C[C@@H](O)[C@H]1C(=O)N2C(C(=O)O)=C(S[C@@H]3CN[C@H](CNS(N)(=O)=O)C3)[C@H](C)[C@H]12` gave a viability of 105%.
For `CCN(CC)CCOc1ccc2c(c1)C(=O)c1cc(OCCN(CC)CC)ccc1-2`, the viability was 44%.
The viability of `CC(=O)Nc1c(I)c(NC(C)=O)c(I)c(C(=O)O)c1I` is reported as 89.8%.
`CCC(C)(C)c1ccc(CC(C)CN2C[C@@H](C)O[C@@H](C)C2)cc1` (some centres unmarked) gave a viability of 11.4%.
For `CCC1(c2ccccc2)C(=O)NCNC1=O`, the viability was 105%.

Sample 4 — observed: enzyme activity; action: inhibitor; tested at: 0.5 µM; reference: control
Compound: Cc1cn(-c2cc(NC(=O)c3ccc(C)c(Nc4nccc(-c5cccnc5)n4)c3)cc(C(F)(F)F)c2)cn1
It gave 99.8% for remaining activity (Rhodopsin kinase GRK7 (GRK7, Homo sapiens, UniProt Q8WTQ7)).
Activin receptor type-1B (ACVR1B, Homo sapiens, UniProt P36896) — remaining activity: 103%.
The remaining activity was 94% (Macrophage-stimulating protein receptor (MST1R, Homo sapiens, UniProt Q04912)).
For Casein kinase I isoform gamma-3 (CSNK1G3, Homo sapiens, UniProt Q9Y6M4): remaining activity read 101%.
Serine/threonine-protein kinase TAO2 (TAOK2, Homo sapiens, UniProt Q9UL54) — remaining activity: 85.2%.
For Mitogen-activated protein kinase 3 (MAPK3, Homo sapiens, UniProt P27361): remaining activity read 105%.
It gave 40.8% for remaining activity (Ephrin type-A receptor 3 (EPHA3, Homo sapiens, UniProt P29320)).
For Mitogen-activated protein kinase kinase kinase 14 (MAP3K14, Homo sapiens, UniProt Q99558): remaining activity read 113%.
For Tyrosine-protein kinase ABL2 (ABL2, Homo sapiens, UniProt P42684): remaining activity read 4.86%.
The remaining activity was 77.3% (Serine/threonine-protein kinase A-Raf (ARAF, Homo sapiens, UniProt P10398)).
It gave 103% for remaining activity (Serine/threonine-protein kinase TBK1 (TBK1, Homo sapiens, UniProt Q9UHD2)).
It gave 104% for remaining activity (Serine/threonine-protein kinase ULK2 (ULK2, Homo sapiens, UniProt Q8IYT8)).
The remaining activity was 102% (Angiopoietin-1 receptor (TEK, Homo sapiens, UniProt Q02763)).
Mitogen-activated protein kinase kinase kinase 5 (MAP3K5, Homo sapiens, UniProt Q99683) — remaining activity: 105%.
The remaining activity was 96.4% (Tyrosine-protein kinase Mer (MERTK, Homo sapiens, UniProt Q12866)).
For Tyrosine-protein kinase JAK3 (JAK3, Homo sapiens, UniProt P52333): remaining activity read 94.2%.
It gave 93.6% for remaining activity (Serine/threonine-protein kinase Nek6 (NEK6, Homo sapiens, UniProt Q9HC98)).
The remaining activity was 103% (Fibroblast growth factor receptor 3 (FGFR3, Homo sapiens, UniProt P22607)).
The remaining activity was 93.2% (Dual specificity mitogen-activated protein kinase kinase 2 (MAP2K2, Homo sapiens, UniProt P36507)).
The remaining activity was 97.3% (Casein kinase I isoform gamma-2 (CSNK1G2, Homo sapiens, UniProt P78368)).
For Fibroblast growth factor receptor 1 (FGFR1, Homo sapiens, UniProt P11362): remaining activity read 99.6%.
It gave 108% for remaining activity (Serine/threonine-protein kinase ULK3 (ULK3, Homo sapiens, UniProt Q6PHR2)).
For Glycogen synthase kinase-3 beta (GSK3B, Homo sapiens, UniProt P49841): remaining activity read 93.7%.
The remaining activity was 94.2% (MAP kinase-activated protein kinase 2 (MAPKAPK2, Homo sapiens, UniProt P49137)).
The remaining activity was 16.2% (Tyrosine-protein kinase FRK (FRK, Homo sapiens, UniProt P42685)).

Some of these lines once more (sample 2):
For Serine/threonine-protein kinase Nek10 (NEK10, Homo sapiens, UniProt Q6ZWH5): remaining binding read 100%.
For Serine/threonine-protein kinase NLK (NLK, Homo sapiens, UniProt Q9UBE8): remaining binding read 100%.
It gave 100% for remaining binding (Dual specificity mitogen-activated protein kinase kinase 7 (MAP2K7, Homo sapiens, UniProt O14733)).
Mitogen-activated protein kinase kinase kinase 11 (MAP3K11, Homo sapiens, UniProt Q16584) — remaining binding: 74%.
For Dual specificity tyrosine-phosphorylation-regulated kinase 1A (DYRK1A, Homo sapiens, UniProt Q13627): remaining binding read 65%.
For Protein kinase C delta type (PRKCD, Homo sapiens, UniProt Q05655): remaining binding read 70%.
